Published values collected from several papers.
Protocols differ between the studies behind these lines. ± marks the error that the study gave.
Chain of UniProt Q5T4S7 (whole entry, looked up): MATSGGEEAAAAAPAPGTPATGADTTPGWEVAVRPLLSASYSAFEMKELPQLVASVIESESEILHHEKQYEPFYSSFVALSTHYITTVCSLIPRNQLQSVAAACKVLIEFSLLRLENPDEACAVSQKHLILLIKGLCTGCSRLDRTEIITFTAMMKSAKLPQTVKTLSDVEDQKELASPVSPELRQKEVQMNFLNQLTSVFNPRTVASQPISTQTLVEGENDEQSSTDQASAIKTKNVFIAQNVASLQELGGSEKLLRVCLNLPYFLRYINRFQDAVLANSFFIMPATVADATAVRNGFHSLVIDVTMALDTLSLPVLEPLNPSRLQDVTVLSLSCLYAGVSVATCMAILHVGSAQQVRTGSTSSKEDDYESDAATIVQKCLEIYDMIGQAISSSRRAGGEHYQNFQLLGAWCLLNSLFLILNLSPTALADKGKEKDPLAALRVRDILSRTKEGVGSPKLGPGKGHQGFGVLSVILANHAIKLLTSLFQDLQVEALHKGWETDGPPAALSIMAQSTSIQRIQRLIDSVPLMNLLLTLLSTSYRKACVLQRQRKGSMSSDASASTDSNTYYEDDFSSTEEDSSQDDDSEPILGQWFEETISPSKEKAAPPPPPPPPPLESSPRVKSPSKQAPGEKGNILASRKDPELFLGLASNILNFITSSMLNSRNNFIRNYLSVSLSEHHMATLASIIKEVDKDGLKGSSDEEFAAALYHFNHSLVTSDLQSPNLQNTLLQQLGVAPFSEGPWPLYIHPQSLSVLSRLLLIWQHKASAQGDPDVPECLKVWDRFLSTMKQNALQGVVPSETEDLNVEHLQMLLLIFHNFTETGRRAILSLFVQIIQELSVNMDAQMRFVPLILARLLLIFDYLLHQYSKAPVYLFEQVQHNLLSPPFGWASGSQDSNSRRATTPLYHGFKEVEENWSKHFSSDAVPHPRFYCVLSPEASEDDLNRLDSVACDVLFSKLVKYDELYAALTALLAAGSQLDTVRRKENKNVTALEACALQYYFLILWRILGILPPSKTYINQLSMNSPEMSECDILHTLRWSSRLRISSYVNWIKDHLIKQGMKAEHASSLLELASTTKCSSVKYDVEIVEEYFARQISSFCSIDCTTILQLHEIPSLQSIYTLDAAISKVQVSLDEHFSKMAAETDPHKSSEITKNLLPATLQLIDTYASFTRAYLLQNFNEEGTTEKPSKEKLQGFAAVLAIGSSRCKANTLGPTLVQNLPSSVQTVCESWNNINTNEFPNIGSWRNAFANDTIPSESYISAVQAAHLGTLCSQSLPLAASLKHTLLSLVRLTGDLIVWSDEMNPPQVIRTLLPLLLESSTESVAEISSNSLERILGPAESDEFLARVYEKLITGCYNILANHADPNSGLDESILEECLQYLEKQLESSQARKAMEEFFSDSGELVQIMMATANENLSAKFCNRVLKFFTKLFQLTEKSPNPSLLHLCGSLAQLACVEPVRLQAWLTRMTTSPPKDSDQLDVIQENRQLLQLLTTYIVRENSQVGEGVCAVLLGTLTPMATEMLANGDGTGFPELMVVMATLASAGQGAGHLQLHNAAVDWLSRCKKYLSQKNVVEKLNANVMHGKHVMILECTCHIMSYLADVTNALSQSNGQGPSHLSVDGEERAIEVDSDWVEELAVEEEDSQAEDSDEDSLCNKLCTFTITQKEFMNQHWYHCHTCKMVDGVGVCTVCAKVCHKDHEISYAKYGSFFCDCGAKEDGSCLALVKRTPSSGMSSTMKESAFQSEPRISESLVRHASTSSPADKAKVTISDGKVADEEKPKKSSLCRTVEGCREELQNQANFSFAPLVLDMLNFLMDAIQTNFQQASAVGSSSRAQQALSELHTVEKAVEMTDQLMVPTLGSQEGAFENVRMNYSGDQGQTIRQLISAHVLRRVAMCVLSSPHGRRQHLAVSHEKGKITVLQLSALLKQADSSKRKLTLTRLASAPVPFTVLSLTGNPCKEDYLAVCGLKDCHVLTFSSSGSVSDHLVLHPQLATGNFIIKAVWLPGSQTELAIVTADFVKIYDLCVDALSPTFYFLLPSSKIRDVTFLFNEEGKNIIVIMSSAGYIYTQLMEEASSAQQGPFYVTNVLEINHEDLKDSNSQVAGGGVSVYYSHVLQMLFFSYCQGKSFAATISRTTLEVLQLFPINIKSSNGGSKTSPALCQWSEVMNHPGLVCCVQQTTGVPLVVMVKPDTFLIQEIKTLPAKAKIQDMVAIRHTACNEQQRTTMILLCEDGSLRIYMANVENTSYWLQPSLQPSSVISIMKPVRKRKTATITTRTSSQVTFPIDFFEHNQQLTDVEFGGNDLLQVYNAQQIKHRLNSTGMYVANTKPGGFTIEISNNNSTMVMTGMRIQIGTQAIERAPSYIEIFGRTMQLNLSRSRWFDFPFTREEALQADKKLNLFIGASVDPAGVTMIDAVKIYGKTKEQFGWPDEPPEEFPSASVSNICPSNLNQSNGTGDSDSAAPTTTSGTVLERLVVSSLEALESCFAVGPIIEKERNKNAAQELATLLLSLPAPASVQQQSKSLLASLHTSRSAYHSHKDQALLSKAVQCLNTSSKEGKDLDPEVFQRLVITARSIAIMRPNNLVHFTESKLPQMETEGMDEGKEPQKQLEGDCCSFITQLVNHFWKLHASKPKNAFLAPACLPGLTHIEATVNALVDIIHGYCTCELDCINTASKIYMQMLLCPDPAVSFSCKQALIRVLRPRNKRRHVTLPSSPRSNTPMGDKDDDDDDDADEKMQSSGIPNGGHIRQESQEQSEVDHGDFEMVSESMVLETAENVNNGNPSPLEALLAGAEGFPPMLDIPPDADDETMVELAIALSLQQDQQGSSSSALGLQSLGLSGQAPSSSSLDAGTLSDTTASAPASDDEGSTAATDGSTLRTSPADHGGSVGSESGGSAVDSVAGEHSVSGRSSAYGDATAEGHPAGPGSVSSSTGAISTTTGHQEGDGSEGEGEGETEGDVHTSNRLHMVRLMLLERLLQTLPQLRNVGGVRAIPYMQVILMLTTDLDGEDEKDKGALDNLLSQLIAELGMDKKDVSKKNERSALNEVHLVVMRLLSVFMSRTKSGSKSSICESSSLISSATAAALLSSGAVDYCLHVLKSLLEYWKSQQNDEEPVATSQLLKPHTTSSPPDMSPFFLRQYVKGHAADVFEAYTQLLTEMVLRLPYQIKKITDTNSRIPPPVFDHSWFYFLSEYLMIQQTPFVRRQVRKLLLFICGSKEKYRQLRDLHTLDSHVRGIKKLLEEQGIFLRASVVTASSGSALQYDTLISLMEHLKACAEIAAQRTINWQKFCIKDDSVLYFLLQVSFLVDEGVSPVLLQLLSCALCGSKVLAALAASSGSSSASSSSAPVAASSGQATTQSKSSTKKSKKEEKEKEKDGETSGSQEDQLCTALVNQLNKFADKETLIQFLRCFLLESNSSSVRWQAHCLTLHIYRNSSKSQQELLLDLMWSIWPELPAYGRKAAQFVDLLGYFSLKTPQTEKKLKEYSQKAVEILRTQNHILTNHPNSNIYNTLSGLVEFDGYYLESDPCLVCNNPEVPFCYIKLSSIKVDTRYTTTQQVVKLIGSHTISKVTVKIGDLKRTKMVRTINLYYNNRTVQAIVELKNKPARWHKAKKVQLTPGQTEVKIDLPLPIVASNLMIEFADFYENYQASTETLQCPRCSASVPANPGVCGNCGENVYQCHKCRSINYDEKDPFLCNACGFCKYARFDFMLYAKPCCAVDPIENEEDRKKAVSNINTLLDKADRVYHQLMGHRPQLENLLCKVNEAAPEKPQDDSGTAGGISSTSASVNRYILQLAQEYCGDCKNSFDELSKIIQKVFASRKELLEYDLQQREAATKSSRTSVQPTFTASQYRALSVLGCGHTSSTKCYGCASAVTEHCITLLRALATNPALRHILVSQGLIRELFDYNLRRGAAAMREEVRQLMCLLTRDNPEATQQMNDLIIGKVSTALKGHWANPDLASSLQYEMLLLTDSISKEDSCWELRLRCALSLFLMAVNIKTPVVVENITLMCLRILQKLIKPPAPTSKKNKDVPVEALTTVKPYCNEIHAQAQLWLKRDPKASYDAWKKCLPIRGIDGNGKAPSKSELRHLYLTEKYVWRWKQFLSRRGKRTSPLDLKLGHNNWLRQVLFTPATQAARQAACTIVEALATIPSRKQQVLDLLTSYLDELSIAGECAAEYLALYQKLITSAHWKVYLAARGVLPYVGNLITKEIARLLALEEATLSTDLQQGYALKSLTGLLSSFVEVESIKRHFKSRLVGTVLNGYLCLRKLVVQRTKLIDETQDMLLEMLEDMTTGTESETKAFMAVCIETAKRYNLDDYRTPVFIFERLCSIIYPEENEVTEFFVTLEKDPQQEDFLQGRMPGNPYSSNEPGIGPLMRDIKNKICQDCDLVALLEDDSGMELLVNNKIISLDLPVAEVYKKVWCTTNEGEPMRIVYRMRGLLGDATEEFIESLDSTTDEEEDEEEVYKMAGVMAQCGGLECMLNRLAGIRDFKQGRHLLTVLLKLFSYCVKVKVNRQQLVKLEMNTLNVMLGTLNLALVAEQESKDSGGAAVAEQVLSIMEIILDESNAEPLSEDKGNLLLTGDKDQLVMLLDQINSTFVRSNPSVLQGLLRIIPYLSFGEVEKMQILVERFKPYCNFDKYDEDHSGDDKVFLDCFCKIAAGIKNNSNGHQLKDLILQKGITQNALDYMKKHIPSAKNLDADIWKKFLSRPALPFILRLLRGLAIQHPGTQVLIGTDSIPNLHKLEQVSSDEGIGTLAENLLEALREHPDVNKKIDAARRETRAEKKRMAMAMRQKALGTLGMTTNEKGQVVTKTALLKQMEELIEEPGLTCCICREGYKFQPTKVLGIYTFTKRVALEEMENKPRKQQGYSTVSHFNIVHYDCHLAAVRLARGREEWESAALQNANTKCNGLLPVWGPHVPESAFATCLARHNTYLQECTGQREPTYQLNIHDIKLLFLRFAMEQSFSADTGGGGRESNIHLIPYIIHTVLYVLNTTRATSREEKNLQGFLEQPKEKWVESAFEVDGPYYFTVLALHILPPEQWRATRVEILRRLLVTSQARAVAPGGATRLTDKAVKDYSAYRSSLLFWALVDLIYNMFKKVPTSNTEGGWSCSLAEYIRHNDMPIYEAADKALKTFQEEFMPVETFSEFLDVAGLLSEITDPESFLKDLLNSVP

| Structure (SMILES) | target or system | test | test system | setting | scale | endpoint | result |
| --- | --- | --- | --- | --- | --- | --- | --- |
| Cc1ncc2n1-c1ccc(Cl)cc1C(c1ccccc1F)=NC2 | – | – | wild-type mice, plasma | intravenous, 0.3 mg/kg, added: 3-day PCN 10 mg/kg | – | half-life | 31.1 ± 12.6 min |
| C[C@H]1CN(c2n[nH]c3nc(N[C@H]4CC[C@H](NS(=O)(=O)CCC(F)(F)F)CC4)ncc23)CCO1 | UBR4 (Homo sapiens, UniProt Q5T4S7) | inhibitor, Kinobeads competition profiling | – | 0.8 µM | reference: vehicle | relative abundance | 1.12 |
| CCCC(C(=O)c1ccc2c(c1)OCO2)N1CCCC1.Cl (racemic) | – | LC-MS/MS | rat, trunk blood plasma | subcutaneous, 4 mg/kg, 40 min | – | plasma concentration | 616 ± 27.1 ng/mL |
| O=C(NCCCN1CCCCC1)c1cc(Sc2ccc(Cl)cc2)nc2ccccc12 | Vero-E6 | CellTiter-Glo ATP | – | 72 h, second round 5-point | reference: DMSO 0%, hyamine -100%, more negative, more toxic | maximum response | -6% |
| O=C1c2c(O)c(=O)ccn2N([C@@H]2c3ccccc3SCc3c2ccc(F)c3F)[C@@H]2COCCN12 | – | – | BALB/c mouse | subcutaneous, 2 mg/kg q12h | – | trough concentration | 14.5 ng/mL |
| CO[C@H]1C[C@@H]2CC[C@@H](C)[C@@](O)(O2)C(=O)C(=O)N2CCCC[C@H]2C(=O)O[C@H]([C@H](C)C[C@@H]2CC[C@@H](OC(=O)NCCOCCOCCOCCOCCOCCOCCOCCOCCC(=O)N3CCc4cc(Cn5nc(-c6ccc7oc(N)nc7c6)c6c(N)ncnc65)ccc4C3)[C@H](OC)C2)C[C@@H](O)[C@H](C)/C=C(\C)[C@@H](O)[C@@H](OC)C(=O)[C@H](C)C[C@H](C)/C=C/C=C/C=C/1C | – | – | patients with advanced solid tumours | intravenous, 8 mg weekly, any grade | – | mucositis incidence | 56.3% |
| CCCC(C(=O)c1ccc(O)c(OC)c1)N1CCCC1 (stereo not shown) | – | – | rat | subcutaneous, 1 mg/kg MDPV, 240 min | – | brain-to-plasma ratio | 0.1 |
| CN/C(=N\[N+](=O)[O-])NCc1cnc(Cl)s1 | – | – | soil | 56 days, nominal 0.12 | – | recovery | 42% |
| COc1cc2c(Oc3ccc4[nH]c(C)cc4c3F)ccnc2cc1OCC1(N)CC1 | – | – | paediatric recurrent refractory sarcoma | concentration not given, whole group | – | grade 1 or 2 Hyperuricemia | 8.8% |
| C#Cc1ccc2c(c1)C(c1ccccn1)=NCc1c(-c3cnco3)ncn1-2 | – | – | cynomolgus monkey hepatocytes | 2 µM, 4 h, 37 °C | – | metabolite peak area share | 87.4% |
| CCC(CC)COC(=O)[C@H](C)N[P@](=O)(OC[C@H]1O[C@@](C#N)(c2ccc3c(N)ncnn23)[C@H](O)[C@@H]1O)Oc1ccccc1 | – | – | human | intravenous, 100 mg | – | participants with diarrhoea | 11% |
| CCN(CC)C(=O)[C@@H]1C=C2c3cccc4[nH]cc(c34)C[C@H]2N(C)C1 | – | measured: hypersensitivity to odours | healthy volunteers | dose not given, 12 to 24 h | reference: placebo, direction not given | List of Complaints score | 2 |
| CCCC(C(=O)c1ccc(O)c(O)c1)N1CCCC1 (stereo not shown) | – | LC-MS/MS | rat, trunk blood plasma | subcutaneous, 1 mg/kg MDPV, 40 min | – | plasma concentration | 15.1 ± 1.9 ng/mL |

For quick reference, copied from above:
| Structure (SMILES) | target or system | test | test system | setting | scale | endpoint | result |
| --- | --- | --- | --- | --- | --- | --- | --- |
| CCC(CC)COC(=O)[C@H](C)N[P@](=O)(OC[C@H]1O[C@@](C#N)(c2ccc3c(N)ncnn23)[C@H](O)[C@@H]1O)Oc1ccccc1 | – | – | human | intravenous, 100 mg | – | participants with diarrhoea | 11% |
| CCN(CC)C(=O)[C@@H]1C=C2c3cccc4[nH]cc(c34)C[C@H]2N(C)C1 | – | measured: hypersensitivity to odours | healthy volunteers | dose not given, 12 to 24 h | reference: placebo, direction not given | List of Complaints score | 2 |
